Earlier results that unrelated publications cite.
Numbered parts are unrelated; values within a part may stem from several laboratories. ± gives the spread as reported.

Study 1
Organism: SARS-CoV-2
Read-out: viral cytopathic effect
Cells: Vero E6
Concentration: 20 µM
Quantity: inhibition
O=C(Nc1cccnc1)N1CCC(Cc2cccc(Oc3ccc(C(F)(F)F)cn3)c2)CC1: -0.2%
O=c1c(O)c(-c2ccc(O)c(O)c2)oc2cc(O)ccc12: -0.12%
O=C(N/N=C/c1ccc(O)c(O)c1)c1cc2ccccc2cc1O: 0.09%
O=c1c(O)c(-c2ccc(O)cc2O)oc2cc(O)cc(O)c12: -0.19%

Study 2
Organism: SARS-CoV-2
Read-out: cytopathic effect
Cells: Caco-2
Concentration: 10 µM
Quantity: inhibition
CCOC(=S)SSC(=S)OCC: 4.9%
O=C(/C=C/c1ccc2ccc(C(F)(F)F)cc2n1)c1ccncc1: 1.9%
CN(CCCN1c2ccccc2CCc2ccccc21)CC(=O)c1ccc(Cl)cc1: 40.9%
Oc1ccc2ccccc2c1SSc1c(O)ccc2ccccc12: 5.2%
O=C(C=Cc1ccc(O)c2c1C(C(=O)OC(Cc1ccc(O)c(O)c1)C(=O)O)C(c1ccc(O)c(O)c1)O2)OC(Cc1ccc(O)c(O)c1)C(=O)O (stereo not drawn): 4.8%
O=[N+]([O-])C=Cc1ccc2c(c1)OCO2: -5.4%
CCCCCCCCCCCCCCCCCC[S+](CCC)c1ccccc1C(=O)OCC (stereo not drawn): 131%
CCn1c(-c2nonc2N)nc2cnc(Oc3cccc(NC(=O)c4ccc(OCCN5CCOCC5)cc4)c3)cc21: -4.4%
Nc1nc2c(ncn2[C@@H]2O[C@H](CO)[C@@H](O)[C@H]2O)c(=S)[nH]1: 111%
CC(C)Nc1cccnc1N1CCN(C(=O)c2cc3cc(NS(C)(=O)=O)ccc3[nH]2)CC1.CS(=O)(=O)O: -1.6%
c1cnc2c([O][Ga]([O]c3cccc4cccnc34)[O]c3cccc4cccnc34)cccc2c1: 0.0366%
Oc1cc(CNC(=S)/C=C/c2cc(O)c(O)c(Br)c2)cc(O)c1O: 5.1%
COc1nc2ccc(Br)cc2cc1[C@@H](c1ccccc1)[C@@](O)(CCN(C)C)c1cccc2ccccc12: 6.6%
C/C=C1/[C@H](O[C@@H]2O[C@H](CO)[C@@H](O)[C@H](O)[C@H]2O)OC=C(C(=O)OC)[C@H]1CC(=O)OCCc1ccc(O)c(O)c1: -0.5%
CNC(=O)ON(C(C)=O)C(=O)NC: 27.9%
Oc1cc2c(cc1O)CN(C(=S)NCCc1ccc(Cl)cc1)CCC2: -31.2%
O=C(O)c1ccc(SSc2ccc(C(=O)O)cn2)nc1: -4.1%
CCC[C@H](NC(=O)[C@@H]1[C@H]2CCC[C@H]2CN1C(=O)[C@@H](NC(=O)[C@@H](NC(=O)c1cnccn1)C1CCCCC1)C(C)(C)C)C(=O)C(=O)NC1CC1: 2.3%
O=[N+]([O-])C(Br)(CO)CO: -9.8%
C[n+]1c2cc(N)ccc2cc2ccc(N)cc21: 99.5%
CC(=O)OC[C@H]1O[C@@H]([S-])[C@H](OC(C)=O)[C@@H](OC(C)=O)[C@@H]1OC(C)=O.CCP(CC)CC.[Au+]: 12.8%
C=CC1=C(C)c2cc3[nH]c(cc4nc(cc5[nH]c(cc1n2)c(C)c5C=C)C(C)=C4CCC(=O)O)c(CCC(=O)O)c3C.[Fe+3]: 62.9%
COc1cccc2c1C(=O)c1c(O)c3c(c(O)c1C2=O)C[C@@](O)(/C(CO)=N/NC(=O)CCCCCN1C(=O)C=CC1=O)C[C@@H]3O[C@H]1C[C@H](N)[C@H](O)[C@H](C)O1: 1.6%
C=CC(=O)c1ccc2ccccc2c1: 7.1%
Oc1c(I)cc(I)c(O)c1I: 9.2%

Further values, each from its own experiment
O=C(Nc1ccc([N+](=O)[O-])cc1Cl)c1cc(Cl)ccc1O — EC50 (SARS-CoV-2; cytopathic effect; Vero E6 cells; 72 h): 230 nM
COc1cc2c(cc1NC(=O)c1ccc(C(C)(C)C)cc1)CCCC2 — EC50 (Venezuelan equine encephalitis virus; viral replication): 13200 nM
CN(C)CCCN1c2ccccc2Sc2ccc(Cl)cc21 — EC50 (SARS-CoV-2; cytopathic effect; Vero E6 cells; 72 h): 11000 nM
Oc1ccc([C@H]2Oc3cc(O)cc([C@@H]4[C@H](c5cc(O)cc(O)c5)[C@@H](c5ccc(O)cc5)O[C@H]4c4ccc(O)cc4)c3[C@@H]2c2cc(O)c3c(c2)[C@@H](c2cc(O)cc(O)c2)[C@H](c2ccc(O)cc2)O3)cc1 — EC50 (SARS-CoV-2; viral replication): 71600 nM
CCC(C(=O)Nc1sc(C(N)=O)c(C)c1C(=O)OC)c1ccccc1 (stereo not drawn) — EC50 (vaccinia virus; viral propagation): 19700 nM
CC(C)(C)[C@H](NC(=O)C(F)(F)F)C(=O)N1C[C@H]2[C@@H]([C@H]1C(=O)N[C@H](C#N)C[C@@H]1CCNC1=O)C2(C)C — viral cytopathic effect (SARS-CoV-2; Vero; concentration not given): inhibited
CC1(C)[C@@H](O)CC[C@]2(C)[C@H]3C(=O)C=C4[C@@H]5C[C@@](C)(C(=O)O)CC[C@]5(C)CC[C@@]4(C)[C@]3(C)CC[C@@H]12 — EC50 (SARS-CoV-2; viral replication): 3170 nM
Cn1c(Cn2ccc(C(F)(F)F)c(Oc3cc(Cl)cc(C#N)c3)c2=O)n[nH]c1=O — EC50 (HIV-1; viral replication; MT-4, K103N mutant): 13.9 ± 4.83 nM
CCC(CC)COC(=O)[C@H](C)N[P@](=O)(OC[C@H]1O[C@@](C#N)(c2ccc3c(N)ncnn23)[C@H](O)[C@@H]1O)Oc1ccccc1 — IC50 (SARS coronavirus; viral replication; literature value): 69 nM
Cn1cnc(Cn2c(=O)[nH]/c(=N\c3cc4cn(C)nc4cc3Cl)n(Cc3cc(F)c(F)cc3F)c2=O)n1 — IC50 (human protease panel; enzyme activity, inhibitor; off-target): > 100000 nM
C[C@H](c1cccc2ccccc12)N1CCC(C(=O)NCc2cc(F)cc(NC(=O)N3CCN(C)CC3)c2)CC1 — IC50 (SARS-CoV-2 PLpro; enzyme activity, inhibitor): 440 nM
O=c1c2ccccc2[se]n1-c1ccccc1O — IC50 (SARS-CoV-2 papain-like protease; enzyme activity; added: 2 mM DTT): 236 ± 107 nM
C=C1CC[C@@H]2[C@](C)(CO)[C@H](O)CC[C@@]2(C)[C@@H]1C/C=C1/C(=O)OC[C@H]1O — IC50 (SARS-CoV-2; viral replication; Calu-3): 1680 nM
C[C@H](NCc1ccc(OCc2cccc(F)c2)cc1)C(N)=O — IC50 (TTX-sensitive sodium channel; sodium current; hippocampal neurons; resting potential): ~100000 nM
O=C(Nc1ccccc1O)c1ccccc1[Se][Se]c1ccccc1C(=O)Nc1ccccc1O — IC50 (SARS-CoV-2 papain-like protease; enzyme activity; added: 2 mM DTT): 339 ± 109 nM
CC[C@H](C)[C@@H]1NC(=O)[C@@H](NC(=O)[C@H](CCC(=O)O)NC(=O)[C@H](CC(N)=O)NC(=O)[C@@H](N)CO)CSSC[C@@H]2NC(=O)[C@@H]3CSSC[C@@H](C(=O)N[C@H](C(=O)N4CCC[C@H]4C(=O)N[C@H](C(=O)N4CCC[C@H]4C(=O)NCC(=O)O)[C@@H](C)CC)C(C)C)NC(=O)[C@H](C(C)C)NC(=O)[C@H](CCC(=O)O)NC(=O)[C@H](Cc4ccccc4)NC(=O)[C@H](CO)NC(=O)[C@H](Cc4c[nH]cn4)NC(=O)[C@H](CCCNC(=N)N)NC(=O)[C@H](CCCNC(=N)N)NC(=O)[C@H](CCCCN)NC(=O)[C@H](Cc4ccc(O)cc4)NC(=O)[C@H](CSSC[C@H](NC(=O)[C@H](CO)NC(=O)[C@H](CC(C)C)NC(=O)[C@H](Cc4c[nH]c5ccccc45)NC(=O)[C@H](CCCCN)NC(=O)[C@H](CCCNC(=N)N)NC1=O)C(=O)N[C@@H](C(C)C)C(=O)N[C@@H](CC(=O)O)C(=O)N[C@@H](CCCNC(=N)N)C(=O)N[C@@H](CCCCN)C(=O)N[C@@H](CC(N)=O)C(=O)N[C@@H](CC(=O)O)C(=O)N3)NC(=O)[C@H](CCC(=O)O)NC(=O)[C@H](CC(C)C)NC(=O)CNC(=O)[C@H](CCC(=O)O)NC2=O — IC50 (rat ASIC1a; inhibitor): 1000 ± 100 nM
N#Cc1ccc(Nc2ncc(Cc3c(F)cccc3F)o2)cc1Cl — EC50 (HIV-1; viral replication; Y181C mutant): 420 nM
Cn1cnc(Cn2c(=O)[nH]/c(=N\c3cc4cn(C)nc4cc3Cl)n(Cc3cc(F)c(F)cc3F)c2=O)n1 — EC50 (SARS-CoV-2): 370 nM
C[C@H](NC(=O)[C@@H](c1cccnc1)N(C(=O)c1ccco1)c1ccc(-c2ccccc2)cc1)c1ccccc1 — EC50 (SARS-CoV-2; antiviral activity): 1300 nM
CN1CCN(c2ccc(Nc3ncc4cc5n(c4n3)C3(CCCCC3)CNC5=O)nc2)CC1 — IC50 (MATE1; transport, inhibitor): 175 nM
COc1cc2c(c(OC)n1)[C@]1(O)[C@H](O)[C@H](CN(C)C)[C@@H](c3ccccc3)[C@]1(c1ccc(C#N)cc1)O2 — EC90 (SARS-CoV-2): 37 nM
CC(=O)Nc1ccc(C)c(C(=O)N[C@H](C)c2cccc3ccccc23)c1 — IC50 (SARS-CoV PLpro; enzyme activity): 2600 ± 100 nM

Some of these lines once more (further values, each from its own experiment):
CC[C@H](C)[C@@H]1NC(=O)[C@@H](NC(=O)[C@H](CCC(=O)O)NC(=O)[C@H](CC(N)=O)NC(=O)[C@@H](N)CO)CSSC[C@@H]2NC(=O)[C@@H]3CSSC[C@@H](C(=O)N[C@H](C(=O)N4CCC[C@H]4C(=O)N[C@H](C(=O)N4CCC[C@H]4C(=O)NCC(=O)O)[C@@H](C)CC)C(C)C)NC(=O)[C@H](C(C)C)NC(=O)[C@H](CCC(=O)O)NC(=O)[C@H](Cc4ccccc4)NC(=O)[C@H](CO)NC(=O)[C@H](Cc4c[nH]cn4)NC(=O)[C@H](CCCNC(=N)N)NC(=O)[C@H](CCCNC(=N)N)NC(=O)[C@H](CCCCN)NC(=O)[C@H](Cc4ccc(O)cc4)NC(=O)[C@H](CSSC[C@H](NC(=O)[C@H](CO)NC(=O)[C@H](CC(C)C)NC(=O)[C@H](Cc4c[nH]c5ccccc45)NC(=O)[C@H](CCCCN)NC(=O)[C@H](CCCNC(=N)N)NC1=O)C(=O)N[C@@H](C(C)C)C(=O)N[C@@H](CC(=O)O)C(=O)N[C@@H](CCCNC(=N)N)C(=O)N[C@@H](CCCCN)C(=O)N[C@@H](CC(N)=O)C(=O)N[C@@H](CC(=O)O)C(=O)N3)NC(=O)[C@H](CCC(=O)O)NC(=O)[C@H](CC(C)C)NC(=O)CNC(=O)[C@H](CCC(=O)O)NC2=O — IC50 (rat ASIC1a; inhibitor): 1000 ± 100 nM
C[C@H](NCc1ccc(OCc2cccc(F)c2)cc1)C(N)=O — IC50 (TTX-sensitive sodium channel; sodium current; hippocampal neurons; resting potential): ~100000 nM
C=C1CC[C@@H]2[C@](C)(CO)[C@H](O)CC[C@@]2(C)[C@@H]1C/C=C1/C(=O)OC[C@H]1O — IC50 (SARS-CoV-2; viral replication; Calu-3): 1680 nM
Cn1c(Cn2ccc(C(F)(F)F)c(Oc3cc(Cl)cc(C#N)c3)c2=O)n[nH]c1=O — EC50 (HIV-1; viral replication; MT-4, K103N mutant): 13.9 ± 4.83 nM
